Assay results from different studies.
Parts stem from different laboratories: compare values within a part only. Changes are numbered by the printed parent chain.

Sample 1 — technique: RNA Bind-n-Seq; molecule type: RNA; matrix: in vitro; tested at: not given; relative to: input RNA pool; direction: higher = stronger binding
Target: RING finger protein unkempt homolog, zinc fingers 1-6, GST-SBP tag (UNK, Homo sapiens, UniProt Q9C0B0, residues 30-357)
UniProt Q9C0B0, sequence (30-357, looked up): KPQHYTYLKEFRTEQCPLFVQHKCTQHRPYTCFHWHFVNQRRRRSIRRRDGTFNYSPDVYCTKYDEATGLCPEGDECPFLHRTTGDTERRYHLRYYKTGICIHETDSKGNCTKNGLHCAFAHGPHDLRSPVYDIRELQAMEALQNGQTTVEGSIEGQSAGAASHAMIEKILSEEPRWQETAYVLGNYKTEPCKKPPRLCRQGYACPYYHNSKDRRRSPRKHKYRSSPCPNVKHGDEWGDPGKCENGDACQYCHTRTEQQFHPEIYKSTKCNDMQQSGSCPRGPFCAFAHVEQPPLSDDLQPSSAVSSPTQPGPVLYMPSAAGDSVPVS
Notes: RNA with constant flanks, human-mouse chimeric sites, ends assumed
Shared flanks, not repeated: GGGAGUUCUACAGUCCGACGAUC … CAACAGAGGAUUGAGCAUCA
| Oligonucleotide | bound/input enrichment [ratio] |
| --- | --- |
| ACACAAUAUGAGACCAACAGCAUGGACUUCAAAGUUGGGGCAGAUGGGACAGUCUUCGCCACCCGGGAGCUGCAGGUCCCCUCCGAGCAGGUGGCCUUUACCGUCACUGCAUGGGACAGC | 0.146 |
| UAUAUCACCAAUGUCCUACAAAAUCCUGACUUGGCUCUGAGAAUGGCUGUACGUAAUAACUUAGCCGGUGCUGAAGAACUCUUUGCCCGGAAAUUUAAUGCUCUCUUCGCCCAGGGAAAC | 0.5 |
| GCUCUUGGGAAUGUAAUAAGUGCCUUGGGGGACAAGAGCAAGAGAGCCACCCAUGUCCCUUACAGAGAUUCCAAGCUGACAAGACUCUUGCAGGAUUCCCUUGGGGGUAACAGCCAAACC | 0.129 |
| GAAUCCUACUCAGGCGGAUUUUGCAACCUGAAUGCAAAGUAGCAAUUAUCUUAGUCACAGUAGGGUAGUUUUGGGGCUCUGUGGCCAGGGUUUUAUUCACAUGCAGGUUUGGAAAAUGUA | 1.91 |
| CCAAGUGAUUCAUCCCAAGGACAGGCCACCCCAUUUGAUGCCUGGACUGAUGACAGUAUGGAAGGGCCUAGUCAAAAUGUUGAAGCUGAGUCAAUUCAGGAUGCCAUGAGUAUGGAAGAG | 0.243 |
| UUUCUACUGCAGCAAACGAUGCUAAGAAUUAAGGAUCCUAAGAAGUCACUGGAUUUUUAUACGAGGGUUCUUGGACUGACGCUAAUCCAGAAGCUUGACUUCCCUGCUAUGAAGUUCUCG | 0.127 |
| CACGUGUCUGCAGUACUUGAUGUGGACUACUCUCCCACUGGGAAGGAAUUUGUGUCUGCCAGCUUUGAUAAAUCUAUUAGAAUCUUUCCUGUGGACAAAAGUCGAAGCAGGGAAGUGUAU | 0.407 |
| GGACAUCUGUCAAAUUGUUAUGUUCCUAAAAACGUAGUGAACACUCUUCAUAUACUAAUCUGCUUGUACAUCUGUAUGAUAGAGAAAUGUAAAUAUGUUAAUCCAAGCAAUGUGUCACUU | 0.327 |

Sample 2 — target: FOSB, bZIP domain (human); technique: DHFR protein complementation; matrix: yeast; relative to: wild-type JUN-FOS pair; direction: higher = stronger binding
Notes: single substitutions, most at no-binding floor
Starting sequence: JUN, bZIP domain (human); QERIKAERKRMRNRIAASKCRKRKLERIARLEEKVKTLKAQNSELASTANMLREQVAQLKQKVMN; partner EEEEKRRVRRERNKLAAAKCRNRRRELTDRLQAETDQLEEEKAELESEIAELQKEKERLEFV
| Change | binding fitness |
| --- | --- |
| R30N | -0.115 natural log |
| A49V | -0.132 natural log |
| E44L | -0.109 natural log |
| S43K | 0.144 natural log |
| K36M | 0.0365 natural log |
| T37W | -0.0679 natural log |
| S47E | 0.0388 natural log |
| A46S | -0.112 natural log |
| K34H | 0.0519 natural log |
| K39Y | -0.776 natural log |
| K34W | -0.158 natural log |
| M51C | -0.271 natural log |
| L38R | -1.16 natural log |
| A46I | -0.126 natural log |
| N42T | -0.116 natural log |
| I28A | -0.199 natural log |
| R53S | -0.685 natural log |
| V35K | -0.0676 natural log |
| E33A | -0.165 natural log |
| S43G | -0.107 natural log |
| E44H | -0.178 natural log |
| E33W | -0.275 natural log |
| M51G | -0.189 natural log |
| L38G | -1.02 natural log |
| N42V | 0.129 natural log |

Sample 3 — technique: DHFR PCA, deep sequencing; matrix: yeast; together with: (+)-ABA 17 µM; relative to: wild-type fitted maximum; direction: higher = stronger binding
Target: ABI1, truncated, D143A, DHFR fusion (Arabidopsis thaliana)
Notes: methotrexate growth selection, single substitutions
Starting sequence: PYL1, truncated, DHFR fusion (Arabidopsis thaliana); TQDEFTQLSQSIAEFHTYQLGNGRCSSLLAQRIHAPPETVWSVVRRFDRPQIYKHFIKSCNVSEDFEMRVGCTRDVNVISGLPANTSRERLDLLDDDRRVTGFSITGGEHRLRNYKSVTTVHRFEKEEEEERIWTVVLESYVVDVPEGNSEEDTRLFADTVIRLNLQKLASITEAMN
| Change | relative binding score [%] |
| --- | --- |
| I79A | 76.9 |
| I57E | 2.04 |
| S27N | 87.1 |
| N114W | -18.5 |
| S63M | 78.1 |
| R99C | 81 |
| H110A | 0.127 |
| E128A | 89.4 |
| V143L | 26.7 |
| D95H | 11.2 |
| T17R | 65.2 |
| D75V | 95 |
| P50C | 13.4 |
| R49Y | 48.3 |
| E151C | 80.4 |
| A158S | 51.9 |
| L112E | 7.04 |
| T1D | 81.3 |

Sample 4 — target: CCNE2, cyclin fold, Cln2 fusion (human); technique: yeast growth competition, sequencing; matrix: yeast; notes: strong parent motif; relative to: not given; direction: higher = stronger binding
Starting sequence: RBL2 docking peptide (human); STTRRRLFVENDS
| Change | normalised enrichment score |
| --- | --- |
| STTRRRLFEENDS [V9E] | 3.74 |
| STTRRPLFVENDS [R6P] | -0.593 |
| STTRRRLFVENLS [D12L] | 2.32 |
| STTYRRLFVENDS [R4Y] | 1.34 |
| NTTRRRLFVENDS [S1N] | 4.69 |
| WTTRRRLFVENDS [S1W] | 2.62 |
| STTRRREFVENDS [L7E] | 0.34 |
| STTRRRLCVENDS [F8C] | -0.202 |
| STTRRRLIVENDS [F8I] | 0.6 |
| STTRRRLFYENDS [V9Y] | 3.55 |
| STTRRNLFVENDS [R6N] | -0.0546 |
| STTARRLFVENDS [R4A] | 2.05 |
| STTRSRLFVENDS [R5S] | 0.527 |
| RTTRRRLFVENDS [S1R] | 4.71 |
| SSTRRRLFVENDS [T2S] | 4.68 |
| STMRRRLFVENDS [T3M] | 1.4 |
| STTRRRLFVEADS [N11A] | 3.69 |

Repeated from above (sample 4):
| Change | normalised enrichment score |
| --- | --- |
| STMRRRLFVENDS [T3M] | 1.4 |
| STTRSRLFVENDS [R5S] | 0.527 |
| STTRRNLFVENDS [R6N] | -0.0546 |
| STTRRRLFVEADS [N11A] | 3.69 |
| STTARRLFVENDS [R4A] | 2.05 |
| SSTRRRLFVENDS [T2S] | 4.68 |
| STTRRREFVENDS [L7E] | 0.34 |
| STTRRRLFYENDS [V9Y] | 3.55 |
| WTTRRRLFVENDS [S1W] | 2.62 |
